Earlier results, collected from citations in different studies.
Lines come from different studies, so protocols differ. Numbers after ± are the reported error.

N#Cc1ccc(-c2csc(N3N=C(c4ccc(N5CCOCC5)cc4)CC3c3ccc(Cl)cc3)n2)cc1 (stereo not shown)
IC50 (HER2): 2280 nM

Nc1nc(Nc2ccccc2)sc1C(=O)c1ccccc1
IC50 (CDK2; enzyme activity, inhibitor): 930 nM

O=C(OC(C(F)(F)F)C(F)(F)F)N1CCC(C(O)(c2ccc3c(c2)OCO3)c2ccc3c(c2)OCO3)CC1
IC50 (mouse monoacylglycerol lipase; inhibitor): 15 nM

N[C@@H](Cc1c[nH]c2ccc(OCc3ccccc3)cc12)C(=O)O
IC50 (LAT1; His antiport; proteoliposomes; together with: [3H]-histidine): 1480 nM

c1ccc(-c2[nH]c3ccccc3c2C2CC(c3ccccn3)=NN2)cc1 (stereo not shown)
IC50 (lipoxygenase; enzyme activity, inhibitor): 3840 ± 10 nM

c1ccc2cc(-c3noc(C4CCNCC4)n3)ccc2c1
IC50 (farnesoid X receptor; antagonist): 580 nM

CC[C@H](C)[C@H](NC(C)=O)C(=O)N[C@H]1CSSC[C@@H](C(=O)N[C@H](C(N)=O)[C@@H](C)O)NC(=O)[C@H](CCCNC(=N)N)NC(=O)[C@H](Cc2c[nH]cn2)NC(=O)[C@H](C)NC(=O)CNC(=O)[C@H](Cc2c[nH]c3ccccc23)NC(=O)[C@H](CC(=O)O)NC(=O)[C@H](CCC(N)=O)NC(=O)[C@H](Cc2c[nH]c3ccccc23)NC(=O)[C@H](C(C)C)NC1=O
IC50 (complement classical pathway; ELISA): 1200 nM

COc1cncc(-c2cccc([C@]3(C)CC(=O)N(C)C(N)=N3)c2)c1
IC50 (BACE1; inhibitor): 80 nM

CCOc1ccc(Cc2cc(C3OC(SC)C(O)C(O)C3OC3OC(C(=O)O)C(O)C(O)C3O)ccc2Cl)cc1 (stereo not shown)
IC50 (SGLT1): > 10000 nM

O=C(O)CCCc1ccccc1
IC50 (HDAC6): 240000 nM

COc1ccc(C(=O)NC2CCN(c3nccc(Nc4ccc(F)cc4)n3)CC2)cc1
IC50 (CDK2; enzyme activity, inhibitor): 54.3 nM

C[C@@H]1O[C@@H](CC(=O)O)CC2=C1C(=O)c1c(O)cccc1C2=O
IC50 (DNMT3B): 500 nM

CC1=NN(c2nc(-c3ccc(Cl)cc3)cs2)C(c2ccc(F)cc2)C1 (stereo not shown)
IC50 (EGFR; kinase activity, inhibitor): 60 nM

NS(=O)(=O)Oc1ccc2c3c(c(=O)oc2c1)CCCC3
IC50 (steroid sulfatase; placental microsomes): 70 nM

CCCCCCCCCc1nc2ccccc2c(=O)n1CCN
IC50 (PqsR, Pseudomonas aeruginosa; inhibitor): 9300 nM

CCc1ccc(Cn2cc(-c3cc(-c4ccc(Br)cc4)nc(N)n3)c3ccccc32)cc1
IC50 (EGFR L858R human; inhibitor): 99 nM

Cc1cc(C)c(CNC(=O)c2c(O)c(O)cc3c(O)c(-c4c(C)cc5c(C(=O)NCc6c(C)cc(C)cc6C)c(O)c(O)cc5c4O)c(C)cc23)c(C)c1
IC50 (Bcl-2 (human); binding, fluorescence polarization; together with: fluorescent BH3 Bid peptide): ~1000 nM

Cc1ccc(C2=NN=C(NC(=S)Nc3ccc(Cl)cc3)SC2)cc1
IC50 (BRAF V600E): 178 ± 4 nM

CN(C)CCCOc1ccc(C(=O)N2c3ccccc3Oc3ccccc32)cc1
IC50 (CaV3.2; calcium influx, inhibitor, fluorescence imaging): 55000 nM

COc1cc(F)c(C(C)C)cc1C1=C(CN2C(=O)O[C@H](c3cc(C(F)(F)F)cc(C(F)(F)F)c3)[C@@H]2C)CC(C)(C)CC1
IC50 (CETP; ex vivo CETP activity, inhibitor; cynomolgus monkey; single dose 0.1 to 30 mg/kg): 83 nM

CC(C)C[C@@H](CN[C@H](Cc1ccccc1)C(N)=O)NC(=O)[C@H](Cc1c[nH]cn1)NC(=O)CNC(=O)[C@@H](NC(=O)[C@H](C)NC(=O)[C@H](Cc1c[nH]c2ccccc12)NC(=O)[C@H](CCC(N)=O)NC(=O)[C@H](N)Cc1ccccc1)C(C)C
IC50 (mouse GRP receptor; binding; literature species comparison): 12.5 ± 1.8 nM

Cc1nn(-c2ccc(S(N)(=O)=O)cc2)c(C)c1-c1nnc(SCC(=NO)c2ccccc2)n1-c1ccccc1
IC50 (cyclooxygenase-2; inhibitor): 910 nM

O=C(Nc1cccc(-c2nc3ncccc3o2)c1)c1cccc(F)c1
IC50 (Plasmodium falciparum ENT1; [3H]adenosine uptake; PfENT1-expressing yeast): 9.6 ± 7.4 nM

CNc1nc(C)c(C(=O)/C=C/c2ccc(O)cc2)s1
IC50 (EGFR tyrosine kinase; inhibitor): 33 nM

CCc1ccc(CCNC(=O)c2c(O)c(O)cc3c(O)c(-c4c(C)cc5c(C(=O)NCCc6ccc(CC)cc6)c(O)c(O)cc5c4O)c(C)cc23)cc1
IC50 (Mcl-1 (human); binding, fluorescence polarization; together with: fluorescent BH3 Bid peptide): ~1000 nM

Cc1cc(C)c(S(=O)(=O)N(C)CC(=O)N(Cc2ccc(C3CCCCC3)cc2)c2ccc(C(=O)O)c(O)c2)c(C)c1
IC50 (STAT5; tyrosine phosphorylation, inhibitor; whole cells): ~20000 nM

O=C(NO)c1ccc(NC(=O)[C@@H](NC(=O)c2ccccc2)c2ccccc2)cc1
IC50 (HDAC; enzyme activity; HeLa nuclear extract): 28.7 nM

CNCCNC(=O)CN1C(=O)Cc2c([nH]c3ccc(Br)cc23)-c2ccc(Cl)cc21
IC50 (trypanothione synthetase Crithidia fasciculata; enzyme activity, inhibitor): 30 nM

C=C1C(=O)N[C@@H](C)C(=O)N(C)[C@@H](C)C(=O)N[C@@H]([C@H](OC(=O)[C@@H](NC(C)=O)[C@H](O)C(C)C)C(C)C)C(=O)N(C)[C@@H]([C@@H](C)OC)C(=O)O[C@H](C)[C@H](NC(C)=O)C(=O)O[C@H](Cc2ccccc2)C(=O)N1C
IC50 (Gαq/11; inhibitor; CHO M1 receptor expressing): 95 nM

CCC1SCC(=O)N1c1c(C#N)c2n(c1C(=O)Nc1ccccc1)CCC2 (stereo not shown)
IC50 (CDK2; enzyme activity, inhibitor): 630 nM

O=C(Nc1ccc(-c2nc3ncccc3o2)cc1)c1ccccc1Br
IC50 (Plasmodium falciparum ENT1; [3H]adenosine uptake; PfENT1-expressing yeast): 10 ± 8.4 nM

Cc1ccc(/C=C(/NC(=O)c2ccccc2)C(=O)Nc2ccc(S(N)(=O)=O)cc2)o1
IC50 (carbonic anhydrase IX; enzyme activity, inhibitor): 8.3 nM

COC(=O)c1ccc2c(c1)NC(=O)/C2=C(\Nc1ccc2c(c1)CCN2C(=O)CN1CCOCC1)c1ccccc1
IC50 (PDGFR beta; inhibitor): 34 nM

O=C(O)c1cc(-c2ccc(C3CC4CC3CN4)cc2)c2ccc(-c3ccc(C(F)(F)F)cc3)cc2c1 (stereo not shown)
IC50 (P2Y14 receptor; antagonist): 3.11 nM

Cc1cc(C(=O)N[C@H](C(=O)N[C@@H](Cc2ccc(F)cc2)C(=O)N[C@H](/C=C/C(=O)OCc2ccnc3ccccc23)CCC(N)=O)C(C)C)no1
IC50 (coxsackievirus B3 3C protease; inhibitor): 130 nM

COc1ccc(CC(=O)Nc2cccc(-c3nc4ccccc4o3)c2)cc1
IC50 (P2Y14 receptor; antagonist): 2 nM

CCCCCCCCCCCCCC(=O)N[C@@H](CO)C(=O)N[C@H](C(=O)N[C@@H](Cc1ccc(O)cc1)C(=O)N[C@@H](CCCNC(=N)N)C(=O)N[C@@H](CCCNC(=N)N)C(=O)NCC(=O)N[C@@H](C)C(=O)N[C@@H](CCCNC(=N)N)C(=O)N[C@@H](CCCNC(=N)N)C(=O)N[C@@H](Cc1c[nH]c2ccccc12)C(=O)N[C@@H](CCCNC(=N)N)C(=O)N[C@@H](CCCCN)C(=O)N[C@@H](CC(C)C)C(=O)O)[C@@H](C)CC
IC50 (PKMζ; AMPA receptor response potentiation, inhibitor, bath application; hippocampal slice CA1 pyramidal cells): ~1000 nM

A few entries again:
NS(=O)(=O)Oc1ccc2c3c(c(=O)oc2c1)CCCC3
IC50 (steroid sulfatase; placental microsomes): 70 nM

CCCCCCCCCc1nc2ccccc2c(=O)n1CCN
IC50 (PqsR, Pseudomonas aeruginosa; inhibitor): 9300 nM
